Assay results from different studies.
Protocols differ between the studies behind these lines. Several values in a cell are separate wells, animals, samples, runs or records. pIC50: −log10 of the molar value.
Chain of UniProt P55060 (whole entry, looked up): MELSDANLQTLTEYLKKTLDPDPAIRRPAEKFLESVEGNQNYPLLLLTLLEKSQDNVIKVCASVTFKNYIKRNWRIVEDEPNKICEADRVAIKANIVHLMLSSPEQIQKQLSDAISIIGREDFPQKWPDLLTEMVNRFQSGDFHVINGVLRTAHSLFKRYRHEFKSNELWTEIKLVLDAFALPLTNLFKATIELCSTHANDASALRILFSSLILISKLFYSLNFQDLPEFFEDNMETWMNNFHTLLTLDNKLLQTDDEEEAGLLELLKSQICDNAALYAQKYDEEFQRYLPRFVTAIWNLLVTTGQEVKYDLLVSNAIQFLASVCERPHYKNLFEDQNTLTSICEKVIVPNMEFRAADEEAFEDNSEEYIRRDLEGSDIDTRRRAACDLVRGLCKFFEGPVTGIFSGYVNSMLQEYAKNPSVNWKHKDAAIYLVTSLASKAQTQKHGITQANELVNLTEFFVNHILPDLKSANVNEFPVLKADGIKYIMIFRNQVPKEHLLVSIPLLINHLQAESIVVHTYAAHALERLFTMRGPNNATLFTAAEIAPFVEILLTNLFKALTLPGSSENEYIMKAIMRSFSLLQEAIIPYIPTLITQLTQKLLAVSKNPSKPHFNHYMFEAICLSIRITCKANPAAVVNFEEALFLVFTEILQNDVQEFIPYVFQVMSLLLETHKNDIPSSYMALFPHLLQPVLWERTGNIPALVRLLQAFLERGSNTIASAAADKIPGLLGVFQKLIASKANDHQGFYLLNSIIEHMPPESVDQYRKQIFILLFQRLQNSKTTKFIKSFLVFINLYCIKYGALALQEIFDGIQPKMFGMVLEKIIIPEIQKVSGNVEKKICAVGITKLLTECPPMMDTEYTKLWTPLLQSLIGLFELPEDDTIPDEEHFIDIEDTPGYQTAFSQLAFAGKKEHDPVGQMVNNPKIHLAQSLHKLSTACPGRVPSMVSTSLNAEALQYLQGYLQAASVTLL
Chain of UniProt P08473 (whole entry, looked up): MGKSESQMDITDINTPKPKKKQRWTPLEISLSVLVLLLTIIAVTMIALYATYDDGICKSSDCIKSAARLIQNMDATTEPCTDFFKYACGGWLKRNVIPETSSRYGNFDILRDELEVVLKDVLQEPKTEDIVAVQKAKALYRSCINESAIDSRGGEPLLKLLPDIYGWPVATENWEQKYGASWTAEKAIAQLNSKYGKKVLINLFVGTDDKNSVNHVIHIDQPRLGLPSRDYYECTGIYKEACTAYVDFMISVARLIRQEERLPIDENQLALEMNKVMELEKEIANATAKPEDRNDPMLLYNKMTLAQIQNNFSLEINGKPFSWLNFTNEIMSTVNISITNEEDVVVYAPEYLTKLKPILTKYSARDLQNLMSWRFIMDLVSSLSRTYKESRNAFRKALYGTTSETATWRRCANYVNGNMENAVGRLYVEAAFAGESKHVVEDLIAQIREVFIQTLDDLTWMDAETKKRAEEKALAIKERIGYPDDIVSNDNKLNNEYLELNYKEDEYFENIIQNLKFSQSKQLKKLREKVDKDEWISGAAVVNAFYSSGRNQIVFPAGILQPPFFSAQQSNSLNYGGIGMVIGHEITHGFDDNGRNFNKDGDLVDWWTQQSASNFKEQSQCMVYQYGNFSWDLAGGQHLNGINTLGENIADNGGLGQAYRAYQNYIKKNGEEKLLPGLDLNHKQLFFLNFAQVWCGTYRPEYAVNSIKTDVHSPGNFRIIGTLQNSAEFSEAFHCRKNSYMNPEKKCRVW

CN1CC[C@]23c4c5ccc(O)c4O[C@H]2[C@@H](O)C=C[C@H]3[C@H]1C5  time to return to baseline latency (hot water tail withdrawal test; normal Sprague-Dawley rats; dose not given): 2 to 3 h
C#CCN(C)[C@H](C)Cc1ccccc1  TH-positive neuron count (stereological counting; MPTP mouse model, substantia nigra; 10 mg/kg): 8470 and 8740 and 6510 and 7350 and 8190 and 7630
OCC(S)CS (stereo not shown)  GSSG level (rat; dose not given; baseline: vehicle): no effect
COc1cc(Nc2ncc(F)c(Nc3ccc4c(n3)NC(=O)C(C)(C)O4)n2)cc(OC)c1OC  pIC50 (Neprilysin (MME, Homo sapiens, UniProt P08473); enzyme activity, inhibitor): < 5.00
C[C@H]1CN(c2n[nH]c3nc(N[C@H]4CC[C@H](NS(=O)(=O)CCC(F)(F)F)CC4)ncc23)CCO1  relative abundance (Exportin-2 (Homo sapiens, UniProt P55060); competitor, Kinobeads competition; human cell extract; 0.8 µM; baseline: vehicle): 1.25
CC1(C)C(C(=O)c2cn(CCCCCF)c3ccccc23)C1(C)C  dose for full substitution (Δ9-THC discrimination; C57BL/6J male mice; ip): 3 mg/kg
COc1cc(CCC[P+](c2ccccc2)(c2ccccc2)c2ccccc2)c(OC)c2c1OCO2.[I-]  GI50 (BT-549; SRB): -5.97 log M
NCC1(CC(=O)O)CCCCC1  cold allodynia reduction (acetone test; CCI mice; dose not given, 2 h): 75%
COC(=O)[C@H]1[C@@H](OC(=O)c2ccccc2)C[C@@H]2CC[C@H]1N2C  cAMP signal in D1 MSNs (mouse, nucleus accumbens; i.p., 20 mg/kg, single injection): increased
C[C@]12CC[C@H]3[C@@H](CC=C4CC(O)CC[C@@]43CO)[C@@H]1CCC2O (stereo partly shown)  mitochondrial respiration (Seahorse, measured: basal, maximal and ATP-linked respiration; primary hepatocytes, rat, GAN diet-induced MASH; dose not given, hepatocytes isolated after dosing; baseline: GAN diet plus vehicle): increased
CO[C@H]1C[C@@H]2CC[C@@H](C)[C@@](O)(O2)C(=O)C(=O)N2CCCC[C@H]2C(=O)O[C@H]([C@H](C)C[C@@H]2CC[C@@H](OC(=O)NCCOCCOCCOCCOCCOCCOCCOCCOCCC(=O)N3CCc4cc(Cn5nc(-c6ccc7oc(N)nc7c6)c6c(N)ncnc65)ccc4C3)[C@H](OC)C2)C[C@@H](O)[C@H](C)/C=C(\C)[C@@H](O)[C@@H](OC)C(=O)[C@H](C)C[C@H](C)/C=C/C=C/C=C/1C  AE leading to dose reduction (patients with advanced solid tumours; intravenous, 8 mg weekly, any grade): 0%
CN1CC[C@]23c4c5ccc(O)c4O[C@H]2[C@@H](OS(=O)(=O)O)C=C[C@H]3[C@H]1C5  time to peak effect (hot water tail withdrawal test; normal Sprague-Dawley rats; dose not given): 45 to 60 min
CC(C)C[C@H](CN)CC(=O)O  rheobase (whole-cell current clamp; DRG neurons, rat, spinal cord injury; 10 µM, overnight, added: nimodipine 5 µM): 255 pA and 160 pA and 10 pA and 60 pA and 105 pA

Excerpt of the above:
C[C@H]1CN(c2n[nH]c3nc(N[C@H]4CC[C@H](NS(=O)(=O)CCC(F)(F)F)CC4)ncc23)CCO1  relative abundance (Exportin-2 (Homo sapiens, UniProt P55060); competitor, Kinobeads competition; human cell extract; 0.8 µM; baseline: vehicle): 1.25
